Values quoted from earlier work that unrelated publications cite.
Lines come from different studies, so protocols differ. ± gives the spread as reported.
VIM-2: Metallo-beta-lactamase VIM-2 (VIM-2, Escherichia coli, UniProt Q5U7L7)
Chain of UniProt Q86U86 (whole entry, looked up): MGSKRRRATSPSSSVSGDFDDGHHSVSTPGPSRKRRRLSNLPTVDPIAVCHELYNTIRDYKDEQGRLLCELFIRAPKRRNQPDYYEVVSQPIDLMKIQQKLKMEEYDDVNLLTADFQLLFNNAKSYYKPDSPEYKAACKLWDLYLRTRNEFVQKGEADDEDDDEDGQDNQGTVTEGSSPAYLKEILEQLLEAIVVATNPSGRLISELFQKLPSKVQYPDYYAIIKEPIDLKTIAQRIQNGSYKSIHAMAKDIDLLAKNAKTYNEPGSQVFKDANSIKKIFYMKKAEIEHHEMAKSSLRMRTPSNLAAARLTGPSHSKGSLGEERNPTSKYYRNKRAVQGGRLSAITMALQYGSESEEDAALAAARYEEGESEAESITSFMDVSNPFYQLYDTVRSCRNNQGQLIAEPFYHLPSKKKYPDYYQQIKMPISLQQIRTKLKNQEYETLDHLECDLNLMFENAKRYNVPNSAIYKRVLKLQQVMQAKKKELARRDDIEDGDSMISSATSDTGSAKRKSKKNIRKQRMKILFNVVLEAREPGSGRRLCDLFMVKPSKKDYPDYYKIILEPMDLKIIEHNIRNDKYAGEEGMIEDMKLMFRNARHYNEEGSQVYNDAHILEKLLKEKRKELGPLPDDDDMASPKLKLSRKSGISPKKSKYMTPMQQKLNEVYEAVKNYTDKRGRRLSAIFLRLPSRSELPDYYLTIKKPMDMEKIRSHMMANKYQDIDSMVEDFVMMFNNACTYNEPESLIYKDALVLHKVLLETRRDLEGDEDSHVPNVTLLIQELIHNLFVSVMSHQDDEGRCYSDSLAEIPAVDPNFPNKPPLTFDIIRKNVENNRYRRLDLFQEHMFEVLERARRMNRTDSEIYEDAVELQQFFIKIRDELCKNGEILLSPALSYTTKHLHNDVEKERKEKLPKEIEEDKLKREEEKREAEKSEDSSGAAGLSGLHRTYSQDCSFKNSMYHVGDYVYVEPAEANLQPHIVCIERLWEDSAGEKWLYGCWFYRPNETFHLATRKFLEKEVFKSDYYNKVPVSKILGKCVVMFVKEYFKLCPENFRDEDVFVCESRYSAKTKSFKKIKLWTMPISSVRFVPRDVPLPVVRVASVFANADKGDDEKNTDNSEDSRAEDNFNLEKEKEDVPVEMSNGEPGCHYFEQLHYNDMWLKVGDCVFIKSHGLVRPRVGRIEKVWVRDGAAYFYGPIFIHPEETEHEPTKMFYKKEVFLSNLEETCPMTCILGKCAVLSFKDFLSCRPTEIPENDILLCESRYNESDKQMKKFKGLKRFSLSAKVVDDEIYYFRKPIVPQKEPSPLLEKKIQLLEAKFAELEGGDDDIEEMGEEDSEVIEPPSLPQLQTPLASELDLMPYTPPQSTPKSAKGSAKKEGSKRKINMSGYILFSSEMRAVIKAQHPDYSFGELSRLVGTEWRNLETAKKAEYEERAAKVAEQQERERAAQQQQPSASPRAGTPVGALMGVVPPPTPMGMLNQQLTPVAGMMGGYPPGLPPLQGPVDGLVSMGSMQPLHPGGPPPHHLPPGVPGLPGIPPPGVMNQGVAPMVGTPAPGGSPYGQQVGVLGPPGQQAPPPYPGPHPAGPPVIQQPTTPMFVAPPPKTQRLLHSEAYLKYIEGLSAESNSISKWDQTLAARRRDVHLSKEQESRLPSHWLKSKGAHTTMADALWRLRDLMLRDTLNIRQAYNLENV
Chain of UniProt P81908 (whole entry, looked up): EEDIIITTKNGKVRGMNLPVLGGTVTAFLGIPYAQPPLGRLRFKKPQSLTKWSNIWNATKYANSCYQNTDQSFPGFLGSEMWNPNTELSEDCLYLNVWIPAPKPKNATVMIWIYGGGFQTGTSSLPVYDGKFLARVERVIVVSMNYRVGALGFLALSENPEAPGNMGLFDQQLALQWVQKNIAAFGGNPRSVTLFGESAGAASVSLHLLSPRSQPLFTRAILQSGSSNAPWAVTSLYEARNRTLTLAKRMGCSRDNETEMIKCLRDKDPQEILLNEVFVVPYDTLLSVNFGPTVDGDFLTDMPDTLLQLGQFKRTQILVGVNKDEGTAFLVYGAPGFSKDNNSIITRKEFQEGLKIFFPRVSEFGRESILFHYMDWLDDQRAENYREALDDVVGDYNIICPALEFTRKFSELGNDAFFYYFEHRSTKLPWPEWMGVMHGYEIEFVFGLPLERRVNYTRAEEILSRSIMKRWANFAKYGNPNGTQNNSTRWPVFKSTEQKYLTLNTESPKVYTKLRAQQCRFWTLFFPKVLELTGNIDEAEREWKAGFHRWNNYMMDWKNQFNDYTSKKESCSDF
Chain of UniProt Q96LB2 (whole entry, looked up): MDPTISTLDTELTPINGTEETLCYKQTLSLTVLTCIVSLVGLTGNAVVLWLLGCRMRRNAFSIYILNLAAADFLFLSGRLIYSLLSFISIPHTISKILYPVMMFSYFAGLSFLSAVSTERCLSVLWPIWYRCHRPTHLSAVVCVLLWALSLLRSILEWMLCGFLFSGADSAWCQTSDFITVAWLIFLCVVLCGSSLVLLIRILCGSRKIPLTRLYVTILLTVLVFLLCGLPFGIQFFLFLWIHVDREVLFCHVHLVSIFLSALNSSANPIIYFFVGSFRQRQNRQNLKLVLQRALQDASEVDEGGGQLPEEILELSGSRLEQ
Chain of UniProt Q14974 (whole entry, looked up): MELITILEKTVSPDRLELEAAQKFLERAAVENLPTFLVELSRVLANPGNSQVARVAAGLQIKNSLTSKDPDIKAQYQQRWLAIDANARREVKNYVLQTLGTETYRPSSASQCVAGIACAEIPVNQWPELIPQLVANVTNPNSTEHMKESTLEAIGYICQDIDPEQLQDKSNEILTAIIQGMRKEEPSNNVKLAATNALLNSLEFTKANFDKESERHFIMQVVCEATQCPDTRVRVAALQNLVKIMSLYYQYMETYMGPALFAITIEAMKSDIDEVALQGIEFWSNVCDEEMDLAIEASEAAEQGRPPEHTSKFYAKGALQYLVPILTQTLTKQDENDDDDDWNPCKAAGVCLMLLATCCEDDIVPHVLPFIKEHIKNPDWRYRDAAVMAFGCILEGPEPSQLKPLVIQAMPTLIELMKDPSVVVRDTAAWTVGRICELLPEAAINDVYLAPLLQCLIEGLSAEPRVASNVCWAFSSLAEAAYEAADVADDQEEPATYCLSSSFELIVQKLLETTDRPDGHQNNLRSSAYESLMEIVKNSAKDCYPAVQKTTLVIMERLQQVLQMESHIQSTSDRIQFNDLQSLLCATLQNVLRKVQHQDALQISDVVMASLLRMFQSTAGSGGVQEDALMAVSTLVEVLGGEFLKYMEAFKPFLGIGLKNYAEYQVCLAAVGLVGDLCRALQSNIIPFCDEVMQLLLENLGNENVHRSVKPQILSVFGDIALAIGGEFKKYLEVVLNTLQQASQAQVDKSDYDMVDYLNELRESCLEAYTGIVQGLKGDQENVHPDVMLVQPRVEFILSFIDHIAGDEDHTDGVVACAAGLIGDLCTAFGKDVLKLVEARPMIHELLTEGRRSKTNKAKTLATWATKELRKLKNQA
Chain of UniProt Q16740 (whole entry, looked up): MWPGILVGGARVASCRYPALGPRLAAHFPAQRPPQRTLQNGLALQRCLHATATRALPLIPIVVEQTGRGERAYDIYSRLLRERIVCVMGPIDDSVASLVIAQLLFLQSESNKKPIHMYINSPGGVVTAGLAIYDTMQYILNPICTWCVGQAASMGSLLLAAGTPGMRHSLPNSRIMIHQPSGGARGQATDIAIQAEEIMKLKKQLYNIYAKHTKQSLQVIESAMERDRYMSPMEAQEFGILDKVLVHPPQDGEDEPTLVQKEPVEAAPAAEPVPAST
Chain of UniProt P27338 (whole entry, looked up): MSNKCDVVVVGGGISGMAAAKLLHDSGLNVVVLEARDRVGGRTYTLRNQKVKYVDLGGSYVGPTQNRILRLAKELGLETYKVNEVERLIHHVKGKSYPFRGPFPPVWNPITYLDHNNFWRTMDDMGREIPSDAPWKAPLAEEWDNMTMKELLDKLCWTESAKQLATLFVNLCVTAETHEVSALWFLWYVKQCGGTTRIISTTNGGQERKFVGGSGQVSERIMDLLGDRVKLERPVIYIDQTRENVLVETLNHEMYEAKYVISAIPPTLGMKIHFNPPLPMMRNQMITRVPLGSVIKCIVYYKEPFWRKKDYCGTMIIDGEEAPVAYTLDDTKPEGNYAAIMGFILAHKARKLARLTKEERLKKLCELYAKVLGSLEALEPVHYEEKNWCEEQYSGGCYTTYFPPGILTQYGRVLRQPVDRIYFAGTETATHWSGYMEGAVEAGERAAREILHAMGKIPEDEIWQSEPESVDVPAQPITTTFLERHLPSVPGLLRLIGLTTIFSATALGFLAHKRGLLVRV
Chain of UniProt P21554 (whole entry, looked up): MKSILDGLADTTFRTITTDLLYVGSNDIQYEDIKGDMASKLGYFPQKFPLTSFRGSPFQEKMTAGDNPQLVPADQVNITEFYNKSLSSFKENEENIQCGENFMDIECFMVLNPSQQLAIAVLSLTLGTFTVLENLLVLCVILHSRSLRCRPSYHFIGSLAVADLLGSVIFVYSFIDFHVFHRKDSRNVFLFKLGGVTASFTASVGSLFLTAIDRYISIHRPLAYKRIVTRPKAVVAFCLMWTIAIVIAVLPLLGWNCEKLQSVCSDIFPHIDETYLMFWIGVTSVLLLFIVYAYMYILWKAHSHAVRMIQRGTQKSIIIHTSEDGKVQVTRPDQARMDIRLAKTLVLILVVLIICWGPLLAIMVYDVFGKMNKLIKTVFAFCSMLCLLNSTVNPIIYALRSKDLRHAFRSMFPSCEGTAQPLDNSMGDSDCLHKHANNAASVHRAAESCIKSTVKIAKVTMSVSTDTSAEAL

| SMILES | target or system | assay | system | conditions | endpoint | value |
| --- | --- | --- | --- | --- | --- | --- |
| O=C(O)[C@@H]1CS[C@H]2CS[C@H](CS)N21 | VIM-2 | inhibitor |  |  | Ki | 2900 ± 400 nM |
| C[C@H](NC(=O)[C@H](CCC(N)=O)NC(=O)[C@H](C)NC(=O)[C@H](CCCCN)NC(=O)[C@H](CCC(N)=O)NC(=O)[C@H](C)NC(=O)[C@H](CCCCN)NC(=O)[C@H](CCC(N)=O)NC(=O)[C@H](C)NC(=O)[C@H](CCC(N)=O)NC(=O)[C@H](CCCCN)NC(=O)[C@H](C)NC(=O)[C@H](CCC(N)=O)NC(=O)[C@H](CCCCN)NC(=O)[C@H](C)NC(=O)[C@H](CCC(N)=O)NC(=O)[C@H](C)NC(=O)[C@H](CCCCN)NC(=O)[C@H](CCC(N)=O)NC(=O)[C@H](C)NC(=O)[C@H](CCCCN)NC(=O)[C@H](CO)NC(=O)[C@H](Cc1ccc(O)cc1)NC(=O)CNC(=O)CNC(=O)CN)C(=O)N[C@@H](CCCCN)C(=O)N[C@@H](CCC(N)=O)C(=O)N[C@@H](C)C(=O)N[C@@H](CCCCN)C(=O)N[C@@H](CCC(N)=O)C(=O)O | heparin | binding |  |  | Kd | 640 nM |
| CCCCCn1cc(C(=O)c2ccc3c(c2)CC(C)(C)C3)c2ccccc21 | cannabinoid receptor CB2 | binding |  |  | Ki | 4.9 ± 0.2 nM |
| C=C(C)C12OC3(c4ccccc4)OC1C1C4OC4(CO)C(O)C4(O)C(=O)C(C)=CC4C1(O3)C(C)C2OC(=O)c1ccccc1 (stereo not drawn) | KPNB1 (Homo sapiens, UniProt Q14974) | binding, SPR |  |  | Kd | 229 nM |
| CSCC[C@H](NC(=O)[C@H](Cc1c[nH]c2ccccc12)NC(=O)[C@H](Cc1c[nH]c2ccccc12)NC(=O)[C@H](CCC(=O)O)NC(=O)[C@@H]1CCCN1C(=O)[C@H](CCCNC(=N)N)NC(=O)CNC(=O)[C@@H](N)C(C)C)C(=O)N[C@@H](CC(=O)O)C(=O)N[C@@H](Cc1ccc(O)cc1)C(=O)N[C@@H](CCC(N)=O)C(=O)N[C@@H](CCCCN)C(=O)N[C@@H](CCCNC(=N)N)C(=O)N[C@@H](Cc1ccc(O)cc1)C(=O)NCC(=O)O | MRGPRX1 (Homo sapiens, UniProt Q96LB2) | agonist | HEK293 expressing target |  | EC50 | 14 nM |
| CC1(C)S[C@H]2CS[C@H](CS)N2[C@@H]1C(=O)O | VIM-2 | inhibitor |  |  | Ki | 6000 ± 1000 nM |
| CN(CCCCCNc1c2c(nc3ccccc13)CCCC2)C1CCC(c2ccc(Cl)c(Cl)c2)c2ccccc21 (stereo not drawn) | MAOB (Homo sapiens, UniProt P27338) | inhibitor |  |  | IC50 | 31 nM |
| CN[C@H](CC(C)C)C(=O)N[C@H]1C(=O)N[C@@H](CC(N)=O)C(=O)N[C@H]2C(=O)N[C@H]3C(=O)N[C@H](C(=O)N[C@H](C(=O)O)c4cc(O)cc(O)c4-c4cc3ccc4O)[C@H](O)c3ccc(c(Cl)c3)Oc3cc2cc(c3O[C@@H]2O[C@H](CO)[C@@H](O)[C@H](O)[C@H]2O[C@H]2C[C@](C)(NCc3ccc(-c4ccc(Cl)cc4)cc3)[C@H](O)[C@H](C)O2)Oc2ccc(cc2Cl)[C@H]1O |  |  | mouse, plasma | intravenous, 10 mg/kg | half-life | 12 h |
| Cn1c2c(c(=O)n(Cc3ccc(Cl)cc3)c1=O)CN(Cc1cccc(C#N)c1)CC2 | CLPP (Homo sapiens, UniProt Q16740) | enzyme activity |  |  | EC50 | 120 nM |
| CC1=C(C)C(=O)OC(C(C)(O)C2(O)CCC3(O)C4CC5OC56C(O)C=CC(=O)C6(C)C4CCC32C)C1 (stereo not drawn) | MDA-MB-231 | cell growth |  |  | IC50 | 360 nM |
| COc1cc(/C=C/c2nnc(-c3ccc(C(F)(F)F)cc3)o2)ccc1O | ACHE (Homo sapiens, UniProt P22303) |  |  |  | IC50 | 55 ± 3 nM |
| CC1=C(C)C(=O)OC(C(C)(O)C2(O)CCC3(O)C4CC5OC56CC=CC(=O)C6(C)C4CCC32C)C1 (stereo not drawn) | SK-BR-3 | cell growth |  |  | IC50 | 710 nM |
| O=C(C=CN1C2CCC1c1ncnc(NC3CC3)c1C2)c1ccccc1O (stereo not drawn) | Protein polybromo-1, BD5 (PBRM1, Homo sapiens, UniProt Q86U86) | binding |  |  | Kd | 30 nM |
| C#CCNc1ccc(/C=C2\SC(=O)N(CN(C)CCC(Oc3ccc(C(F)(F)F)cc3)c3ccccc3)C2=O)cc1 (stereo not drawn) | Cholinesterase (BCHE, Equus caballus, UniProt P81908) | inhibitor |  |  | IC50 | 203 nM |
| O=C(OCC[18F])C1C2CCC(CC1c1ccc(/C=C\I)cc1)N2 (stereo not drawn) | SERT | microPET | anaesthetised, pons |  | time to peak uptake | 115 min |
| CCOC(=O)C1C(OC(c2ccc(Cl)cc2)c2ccc(Cl)cc2)CC2CCC1N2C (single isomer, unassigned) | norepinephrine transporter |  |  |  | Ki | 3350 ± 154 nM |
| CC(=O)N[C@H]1[C@@H](OC[C@H](NC(=O)CNC(=O)[C@@H]2CCCN2C(=O)[C@H](C)NC(=O)[C@@H]2CCCN2C(=O)[C@@H](N)CCCNC(=N)N)C(=O)N[C@H](C(=O)N[C@@H](C)C(=O)N2CCC[C@H]2C(=O)N2CCC[C@H]2C(=O)N[C@@H](C)C(=O)N[C@@H](Cc2c[nH]cn2)C(=O)NCC(=O)O)[C@@H](C)O)O[C@H](CO)[C@H](O)[C@@H]1O | 16 A monoclonal antibody | SPR |  |  | Kd | 930 nM |
| CCCCCCCc1c(C(=O)NCCc2ccc(N3CCCCC3)cc2)[nH]c2ccc(Cl)cc12 | CNR1 (Homo sapiens, UniProt P21554) | allosteric modulator, radioligand binding |  | together with: [3H]CP55,940 | Kb | 651 nM |
